Measurements collected from several papers.
Every numbered part comes from another study and shows a few of its results, in no order.

Set 1
Target: TATA-box-binding protein 1 (TBP1, Arabidopsis thaliana, UniProt P28147, residues 1-200, full length assumed)
Method: protein-binding microarray
Form: double-stranded DNA, one strand shown
Sample: in vitro
Concentration: not given
Notes: k-mer, scored over probes, only values ≥0.25
Direction: higher = stronger binding
Construct (chain): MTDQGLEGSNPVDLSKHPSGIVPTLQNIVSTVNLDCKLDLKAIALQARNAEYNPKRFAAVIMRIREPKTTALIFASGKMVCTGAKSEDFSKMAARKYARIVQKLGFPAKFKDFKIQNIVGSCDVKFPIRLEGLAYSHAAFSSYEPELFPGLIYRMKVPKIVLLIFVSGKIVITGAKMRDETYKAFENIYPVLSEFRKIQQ
| Oligonucleotide | E-score |
| --- | --- |
| AATTCAT | 0.26 |
| ATATAGC | 0.391 |
| AAAAATA | 0.317 |
| GTAGTTA | 0.274 |
| GATATAC | 0.359 |
| TGTATAA | 0.363 |
| AATAACA | 0.288 |

Set 2
Target: Sal-like protein 4, full length isoform B (SALL4, Homo sapiens, UniProt Q9UJQ4-2, residues 1-616)
Method: universal PBM
Form: double-stranded DNA, one strand shown
Sample: in vitro
Concentration: not given
Notes: 8-mer, flanks averaged, mean of replicates
Direction: higher = stronger binding
Target sequence (chain): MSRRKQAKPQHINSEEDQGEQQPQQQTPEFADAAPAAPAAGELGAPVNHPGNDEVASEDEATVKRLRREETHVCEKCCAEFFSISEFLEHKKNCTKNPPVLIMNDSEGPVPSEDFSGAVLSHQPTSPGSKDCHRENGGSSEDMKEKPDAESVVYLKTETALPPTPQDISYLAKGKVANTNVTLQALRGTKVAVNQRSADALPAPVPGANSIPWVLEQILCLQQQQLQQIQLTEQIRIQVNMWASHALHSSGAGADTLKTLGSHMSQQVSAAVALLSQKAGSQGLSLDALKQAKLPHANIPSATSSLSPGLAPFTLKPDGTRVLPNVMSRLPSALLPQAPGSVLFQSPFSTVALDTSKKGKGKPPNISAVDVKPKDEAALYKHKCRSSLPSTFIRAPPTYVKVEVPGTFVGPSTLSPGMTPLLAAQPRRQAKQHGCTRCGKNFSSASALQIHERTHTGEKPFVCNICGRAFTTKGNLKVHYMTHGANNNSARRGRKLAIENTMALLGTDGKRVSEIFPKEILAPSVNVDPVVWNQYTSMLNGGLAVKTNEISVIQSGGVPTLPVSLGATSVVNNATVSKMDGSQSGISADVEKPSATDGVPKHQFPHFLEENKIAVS
| Oligonucleotide | E-score |
| --- | --- |
| ATGTCTTA | 0.16 |
| ACCGCCCT | -0.106 |
| CTACCTTA | 0.0177 |
| AGGGGGGA | -0.124 |
| CCGACCGA | -0.333 |
| GAAGCTTA | 0.116 |
| AAATGCGA | 0.163 |
| CGCGGGTC | -0.302 |

Set 3
Target: RNA binding protein fox-1 homolog 2, RRM domain, GST-SBP tag (RBFOX2, Homo sapiens, UniProt O43251-10, residues 100-194)
Method: RNA Bind-n-Seq
Form: RNA
Sample: in vitro
Concentration: 365 nM
Notes: natural RNA segment, single round, ends assumed
Baseline: no-protein control
Direction: higher = stronger binding
Shared flanks, not repeated: GGGAGUUCUACAGUCCGACGAUC … UGGAAUUCUCGGGUGCCAA
Target sequence (chain): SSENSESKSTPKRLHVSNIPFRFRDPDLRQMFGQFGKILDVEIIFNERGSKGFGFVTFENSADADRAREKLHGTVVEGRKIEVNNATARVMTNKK
| Oligonucleotide | RBNS enrichment (R) |
| --- | --- |
| AAGCUCCCAGCUGGCCAUAGUGAAAAGAUUUCCCCUUUCAACCAGCAAAGUCUUCUGUUGGCCUUUGGAACAGGAGAGUCCCCGGAAUCUAGGACCCUAGUCUUUGUACU | 0.26 |
| GGGAAAAAAAAGUUUGAUCUUCUUUUCCAGUAGAGAAUAGUUUGUGAAAUGAUAAGGGCAUUCUAUCUGCUUGCUGUGACCAGCGUGUGCACACAAACCUUAACAAGACU | 0.35 |
| GGGGCCCCCCACGCCGAGGUUCCUGGAGGCGGGAGGUGCCGCGAUCUAAGUGCCUAGCCCUUCCACCCACCCGCCGUCCACCUCGUCCAUCGGGGACACAGAGUGGCCAG | 0.196 |
| UCUGUCUCUUGUUUAUAUGAAUAAGUUCUCGUCGUUUGUCCUUUAUGUAUUCUUCUCUACCGUAUAACACACUGAAACUGUAUCUACUUGCUGUGUUGCAAUAUUUUGCU | 0.589 |
| AAGUAGCUCUGGGGCCAUGUCUUGACUGGCUCCUAAUGGUGACUCCAGGCCAGCACUUGGUCAUUUGAGAACUGUCUUCUGUGUUCUCUGUGACUUAGGCUAGCCCUAGG | 0.369 |
| UUAGAAGGAGAGUCCUAACAUGAAAUGGUCAUCUCUUAGAUUUGGGAGGAAGGAAGCCACUGUUAACUGUGUAGUGUUACAGCAUAUUGCACAAAAGGUUUUGGUUUUGG | 0.339 |

Single results of other studies
| Substance | target | test | system | setting | how to read | quantity | value |
| --- | --- | --- | --- | --- | --- | --- | --- |
| PhoQ, residues 284 288 289 292 302 303 AQGLTV | PhoP, residues 12 14 15 18 19 AWHSL (Escherichia coli, UniProt P23836) | Sort-seq, measured: YFP reporter | E. coli | PhoQ-PhoP variant library, with: 10 µM Mg2+ | baseline: high Mg2+ state, higher = stronger signaling | fold induction | 1.4 |

For quick reference, copied from above (set 2):
| Oligonucleotide | E-score |
| --- | --- |
| ATGTCTTA | 0.16 |
